Published values of several laboratories.
Protocols differ between the studies behind these lines. Values joined by “and” are separate records of one study, mostly repeats; a detail may differ. ± marks the error that the study gave.
USP13 ZnF-UBD domain: Ubiquitin carboxyl-terminal hydrolase 13, ZnF-UBD domain (USP13, Homo sapiens, UniProt Q92995)
Sequence of UniProt Q92995 (whole entry, looked up): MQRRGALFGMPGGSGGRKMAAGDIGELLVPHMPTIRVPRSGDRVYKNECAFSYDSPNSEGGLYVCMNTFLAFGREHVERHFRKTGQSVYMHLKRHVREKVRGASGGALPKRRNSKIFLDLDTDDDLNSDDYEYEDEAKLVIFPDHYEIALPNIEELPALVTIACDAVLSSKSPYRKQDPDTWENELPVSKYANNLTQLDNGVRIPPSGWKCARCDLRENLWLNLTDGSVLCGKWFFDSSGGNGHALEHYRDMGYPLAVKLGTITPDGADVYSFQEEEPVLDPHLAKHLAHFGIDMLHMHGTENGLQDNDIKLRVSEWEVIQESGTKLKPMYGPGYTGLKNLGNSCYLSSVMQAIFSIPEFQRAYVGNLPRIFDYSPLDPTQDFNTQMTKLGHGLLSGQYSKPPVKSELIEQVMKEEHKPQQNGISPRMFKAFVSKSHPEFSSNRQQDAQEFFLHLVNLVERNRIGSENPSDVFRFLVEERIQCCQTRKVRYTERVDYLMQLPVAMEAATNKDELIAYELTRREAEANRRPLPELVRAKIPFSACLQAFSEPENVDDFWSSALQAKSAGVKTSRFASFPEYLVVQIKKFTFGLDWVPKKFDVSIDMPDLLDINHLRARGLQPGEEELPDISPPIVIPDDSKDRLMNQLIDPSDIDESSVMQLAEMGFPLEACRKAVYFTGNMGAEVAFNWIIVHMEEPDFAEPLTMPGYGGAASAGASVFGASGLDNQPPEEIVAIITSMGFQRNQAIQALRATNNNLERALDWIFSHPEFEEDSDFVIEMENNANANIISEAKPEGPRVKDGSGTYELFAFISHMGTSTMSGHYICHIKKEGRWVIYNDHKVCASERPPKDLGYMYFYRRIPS

C[C@H]1C[C@H]2CSC(N)=N[C@@]2(c2nc(NC(=O)c3ccc(OC(F)F)cn3)cs2)CO1
percent change from baseline (item: Aβx-40; healthy adults, plasma; 160 mg single dose, 8 h post-dose; baseline: placebo): -58.2%

N#Cc1ccc2c(-c3ccncc3)c(-c3ccc(F)cc3)nn2c1
log2 fold change (kinase binding, competitor, MIB/MS competition, item: YPK1; Candida albicans cell lysate; 100 nM; baseline: DMSO): 0.106

Cc1cc(C)c(CNC(=O)c2cc(Cl)c3c(c2C)O[C@@](C)([C@H]2CC[C@H](N(C)C)CC2)O3)c(=O)[nH]1
best overall response CR (IWG 2007 criteria; human, relapsed/refractory PTCL not otherwise specified; dose not given): 27%

CN[C@@H]1COc2c(S(=O)(=O)NC(=O)Nc3c4c(cc5c3CCC5)CCC4)cnn2C1
inhibition (item: IL-18; human participants, whole blood ex vivo; 150 mg single dose, 8 h, IL-18, circulating, adjusted for, with: LPS/ATP; baseline: baseline): 94.4%

Cc1cc(-c2nc(C(=O)Nc3cc4oc(N5CCOCC5)nc4nc3N3CC[C@@H](O)C3)co2)ccn1
pNF-κB p65 positive cells (immunohistochemistry, item: phospho-NF-κB p65; mouse, intracranial A20 tumour; dose not given; baseline: total cells): 7.1%

Cc1n[nH]c2ccc(-c3cc(OC[C@@H](N)Cc4ccccc4)cnc3-c3ccoc3)cc12
log2 fold change (kinase binding, competitor, MIB/MS competition, item: RCK2; Candida albicans cell lysate; 100 nM; baseline: DMSO): -0.0134

CC(C)NCC(O)c1ccc(O)c(O)c1 (centres unmarked)
sarcomere length (ventricular cardiomyocytes, C57BL/6 mouse; dose not given, 0.648 s): 1.72 µm

O=c1cc(-c2ccccc2)oc2cc(O)c(O)c(O)c12
aortic arch plaque area (Oil Red O staining; ApoE-/- mouse on high-fat diet; oral gavage, 20 doses every three days, 72 h): 7.76 ± 0.85%

CCCCC1(CCCC)CN(c2ccccc2)c2cc(SC)c(OCC(=O)N[C@@H](C(=O)NCC(=O)O)c3ccccc3)cc2S(=O)(=O)C1
plasma C4 (item: 7α-hydroxy-4-cholesten-3-one; human, plasma; 10 mg once daily, day 2): 48.3 ng/mL

N#Cc1ccc2c(c1)[C@H]1CCCN(C(=O)c3ccc4[nH]cnc4c3)[C@H]1C2
change from baseline (item: fasting plasma insulin; human, Phase II trial; oral, 240 mg once daily, day 28, adjusted mean, SE): 11.3 pmol/L

Cc1ccc(C(=O)Nc2ccc(CN3CCN(C)CC3)c(C(F)(F)F)c2)cc1C#Cc1cnc2cccnn12
lag time (platelet aggregation; platelet-rich plasma; 0.1 µM, DMSO 130.6, with: collagen 2 mg/mL): 228 s

CO[C@H]1CC[C@H](N2C(=O)CNc3ncc(-c4ccc(C(C)(C)O)nc4)nc32)CC1
p4EBP1 change from baseline (flow cytometry; stimulated T cells, human, blood; 60 mg single dose, 5 h, median; baseline: baseline): -36.6%

CN(C(=O)n1cnc(-c2ccc[n+]([O-])c2)c1)C1CCCCC1
change in licking score (mice, formalin paw test; oral, 3 mg/kg, late phase; baseline: vehicle, direction not given): -41%

O=C(COc1ccc(Cl)cc1)NC12CC(c3nnc([C@H]4C[C@@H](OC(F)(F)F)C4)o3)(C1)C2
ATF4 protein change (healthy human, PBMC; 260 mg once daily, day 14, 4 h post-dose, median, with: sodium arsenite ex vivo; baseline: baseline): -65.2%

O=C(NC[C@H]1CN(c2ccc(N3CCOCC3=O)cc2)C(=O)O1)c1ccc(Cl)s1
prothrombin time AUC(0-48h) (human moderate renal impairment, plasma; 10 mg, geometric mean, unit not given; baseline: baseline): 64.2

O=C(O)CCn1nnc(-c2ccccc2)n1
Kd (USP13 ZnF-UBD domain): 950 µM

COc1cc(Nc2ncc3c(n2)-c2ccc(Cl)cc2C(c2c(F)cccc2OC)=NC3)ccc1C(=O)O
median response score (mouse, KT-10 Wilms tumour xenograft; 10.4 mg/kg; direction not given): 1

CCCCCCCCCCCCCCCC1NCCc2cc(O)c(O)cc21 (centres unmarked)
Fe2+ chelation (ferrozine; cell-free; 100 µM, DMSO solvent): 28.7 ± 1.26%

COc1ccccc1[C@H](Cn1c(=O)n(C(C)(C)C(=O)O)c(=O)c2c(C)c(-c3ncco3)sc21)OC1CCOCC1
fractional hepatic DNL ([1-13C]acetate infusion, isotopomer analysis; overweight or obese healthy men, plasma VLDL-TG palmitate; oral, 200 mg single dose, 8 h post-dose, with: oral fructose): 5.71 % new palmitate

C=CC(=O)Nc1cc(Nc2ncc(C(=O)OC(C)C)c(-c3cn(C)c4ccccc34)n2)c(OC)cc1N(C)CCN(C)C
responders with duration ≥ 6 months (EGFR-mutant NSCLC patients): 59%

COc1ccc(Oc2cc(N(C)CCOc3ccc(CC4SC(=O)NC4=O)cc3)ncn2)cc1 (centres unmarked)
HbA1c (type 2 diabetes patients; 0.5 mg once daily): 7.7 ± 1.23%

COc1ccc(-c2cncc(N[C@@H](C)c3cccc(NC(=O)c4cncc(C)c4)c3)n2)cc1OC
delta delta Ct (item: rno-miR-381-3p; rat SU5416/hypoxia model, lung; dose not given, unit not given; baseline: SU5416/hypoxia vehicle): -3.67

Cc1nn(-c2nc3c(F)cc(F)cc3s2)c(O)c1C(c1ccc(C(F)(F)F)cc1)c1c(C)nn(-c2nc3c(F)cc(F)cc3s2)c1O
histology score (item: parenchymal necrosis; mouse, cerulein-induced acute pancreatitis; 25 mg/kg; direction not given): 1 and 0

Cn1cc(Nc2nccc(-c3ccc4c(c3)CN(C3COC3)CC[C@H]4NC(=O)c3cn(C(C)(C)C)nn3)n2)cn1
pathway activation z-score (item: MIF-mediated glucocorticoid regulation; splenic B cells, mice; 30 mg/kg, IgD-activated in vivo; baseline: vehicle, direction not given): -1.13

Cn1cc(-c2ccc(-c3cncc(Cl)c3N3CCC4(CCNC4=O)CC3)cc2)cn1
log2 fold change (COLO 205; gene expression, microarray, item: RSU1 mRNA; concentration not given, 6 h; baseline: untreated cells): 1.23

N#Cc1ccn2c(-c3ccncc3)c(-c3ccc(F)cc3)nc2c1
log2 fold change (kinase binding, competitor, MIB/MS competition, item: KIN3; Candida albicans cell lysate; 10 µM; baseline: DMSO): -0.195

CC(=O)Oc1cc2c(s1)CCN(C(C(=O)C1CC1)c1ccccc1F)C2 (centres unmarked)
patients with IPA above 90% (platelet aggregation, light transmission aggregometry; human patients, platelet-rich plasma; 2 h, with: TRAP 5 µM): 0%

Cc1cc(Nc2cc3ncccc3c(N[C@@H]3C[C@H]4CC[C@@H](C3)N4CCC#N)n2)n[nH]1
change in stool frequency (moderate-severe ulcerative colitis patients; 80 mg, day 28, Mayo subscore, unit not given; baseline: baseline): -0.4

O=C(O)Cc1cccc2cccnc12
Kd (USP13 ZnF-UBD domain): > 1000 µM

N#Cc1ccc2c(c1)[C@H]1CCCN(C(=O)c3ccc4[nH]cnc4c3)[C@H]1C2
1,5-anhydroglucitol (human, plasma; 360 mg, day 15): 8.7 µg/mL

C=CCn1c(=O)c2cnc(Nc3ccc(N4CCN(C)CC4)cc3)nc2n1-c1ccc2c(n1)[C@@](O)(CC)CC2
tumour growth inhibition (NCI-H1944 xenograft, NOD/SCID mice; oral, 80 mg/kg, day 28, once daily days 0-9 and 18-27): 51.4%

COc1cc2cc(-c3ccc(CC(=O)Nc4cc(C(C)(C)C(F)(F)F)no4)cn3)cnc2cc1OC
partial response as best response (RECIST v1.1; RET-altered advanced solid tumour patients; oral, 150 mg once daily, phase I): 25%

NNC(=O)c1ccncc1
IL-1β level (ELISA; Mycobacterium marinum-infected mice, skin; intraduodenal, 10 mg/kg three times daily, 3 days post infection): 66.2 pg/mL and 68.4 pg/mL and 75.5 pg/mL

CCCCCCCCCCC1NCCc2cc(O)c(O)cc21 (centres unmarked)
Fe2+ chelation (ferrozine; cell-free; 100 µM, DMSO solvent): 23.6 ± 4.32%

C[C@H](Oc1ccc(Br)cc1-c1ccon1)C(=O)O
difference from placebo (response peak; human, tibialis anterior muscle; 200 mg, 30 Hz+30 s): 4.97%

c1ccc(-c2n[nH]cc2-c2ccnc3ccccc23)nc1
log2 fold change (kinase binding, competitor, MIB/MS competition, item: KIN3; Candida albicans cell lysate; 100 nM; baseline: DMSO): 1.3

O=C(NCc1ccc(CNS(=O)(=O)c2ccccc2)cc1)c1ccccc1Cl
ear edema (xylene-induced ear edema; mouse; intraperitoneal, 10 mg/kg): no effect

NC(=O)c1cnc2[nH]ccc2c1N[C@@H]1[C@@H]2CC3C[C@H]1C[C@@](O)(C3)C2
total naive T-cell change (flow cytometry; Japanese healthy men, blood; oral, 30 mg twice daily, 72 h after day 7 dose; baseline: baseline): -1.3%
